Measured values pooled from the literature.
Every numbered part comes from another study and shows a few of its results, in no order. Substitutions count along the parent as printed.

Set 1
Target: ABI1, truncated, D143A, DHFR fusion (Arabidopsis thaliana)
Technique: DHFR PCA, deep sequencing
Medium: yeast
Notes: methotrexate growth selection, single substitutions
With: (+)-ABA 1.4 µM
Relative to: wild-type fitted maximum
Direction: higher = stronger binding
Starting sequence: PYL1, truncated, DHFR fusion (Arabidopsis thaliana); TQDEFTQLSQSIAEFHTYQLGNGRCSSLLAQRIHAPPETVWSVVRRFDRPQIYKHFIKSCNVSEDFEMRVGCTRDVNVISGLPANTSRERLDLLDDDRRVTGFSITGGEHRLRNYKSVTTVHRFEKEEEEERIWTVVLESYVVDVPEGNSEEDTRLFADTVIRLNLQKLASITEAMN
Substitution	relative binding score [%]
N77G	38.1
D144V	-5.17
T120W	-8.35
P37S	18.8
P50Q	-12.4
E127H	64.4
Q19D	76.8
D95E	-3.01
S63R	50.3
N165V	16.2
P50I	-10.8
R74L	-5.57
F56W	27
A35M	-6.47
D65H	42.8
E125D	54.8
L82K	-9.23
D92L	2.82
L138I	1.61

Set 2
Target: Sal-like protein 4, full length isoform A (SALL4, Homo sapiens, UniProt Q9UJQ4, residues 1-1053)
UniProt Q9UJQ4, sequence (whole entry, looked up): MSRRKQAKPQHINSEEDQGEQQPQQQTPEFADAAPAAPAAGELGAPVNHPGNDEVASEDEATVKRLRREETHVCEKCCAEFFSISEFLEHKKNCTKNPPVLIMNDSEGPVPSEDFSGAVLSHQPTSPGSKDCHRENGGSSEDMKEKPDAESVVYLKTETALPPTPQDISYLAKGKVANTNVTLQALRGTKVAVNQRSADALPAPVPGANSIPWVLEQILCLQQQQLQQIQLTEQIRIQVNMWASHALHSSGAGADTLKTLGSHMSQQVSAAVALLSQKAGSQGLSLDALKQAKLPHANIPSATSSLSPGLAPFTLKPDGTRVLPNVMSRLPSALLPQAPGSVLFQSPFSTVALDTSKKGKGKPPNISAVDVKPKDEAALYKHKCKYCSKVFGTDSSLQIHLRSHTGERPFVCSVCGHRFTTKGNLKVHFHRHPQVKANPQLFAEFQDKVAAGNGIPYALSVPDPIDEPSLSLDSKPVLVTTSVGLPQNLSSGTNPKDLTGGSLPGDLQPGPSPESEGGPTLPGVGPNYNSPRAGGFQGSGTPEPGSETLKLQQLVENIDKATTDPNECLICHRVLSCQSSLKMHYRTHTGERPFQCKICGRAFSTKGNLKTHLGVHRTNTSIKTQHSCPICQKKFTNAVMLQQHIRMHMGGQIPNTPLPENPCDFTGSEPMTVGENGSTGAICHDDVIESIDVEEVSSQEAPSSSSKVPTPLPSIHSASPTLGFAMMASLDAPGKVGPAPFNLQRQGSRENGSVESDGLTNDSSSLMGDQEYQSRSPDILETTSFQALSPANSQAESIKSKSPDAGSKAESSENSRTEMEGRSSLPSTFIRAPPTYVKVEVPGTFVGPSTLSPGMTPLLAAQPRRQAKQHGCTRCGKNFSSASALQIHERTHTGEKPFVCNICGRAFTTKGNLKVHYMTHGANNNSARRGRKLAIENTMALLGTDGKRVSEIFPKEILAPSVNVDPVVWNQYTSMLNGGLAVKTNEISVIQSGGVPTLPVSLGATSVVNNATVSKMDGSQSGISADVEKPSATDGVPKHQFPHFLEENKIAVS
Technique: universal PBM
Molecule type: double-stranded DNA, one strand shown
Medium: in vitro
Concentration: 600 nM
Notes: 8-mer, flanks averaged, mean of replicates
Direction: higher = stronger binding
Oligonucleotide	E-score
CCCTATCG	-0.0705
ACTAACTC	0.0772
GTTTATGA	0.366
ATCAATAC	0.271
AGAGTAGA	0.157
CCTTGATC	-0.0477
CGGTGGCA	-0.303
ACTTTGGG	-0.0704
ACCGTACT	0.0585
TCTATAAA	0.364
AACTGTTC	-0.0166
AGAGAATG	0.0538
TCAGCGAA	-0.121
CCGTTCGA	-0.0128
GACGTCCA	-0.0518
AGTGTAAA	0.232

Set 3
Target: CCNB1, cyclin fold, Cln2 fusion (human)
Technique: yeast growth competition, sequencing
Medium: yeast
Notes: weak parent motif
Relative to: not given
Direction: higher = stronger binding
Starting sequence: SLBP docking peptide (human); ARYKRKLLINDFG
Substitution	normalised enrichment score
ARYHRKLLINDFG [K4H]	1.64
ARYKRKLLINDFQ [G13Q]	0.15
ARYKRKLLVNDFG [I9V]	0.417
ARYERKLLINDFG [K4E]	0.114
ARYKGKLLINDFG [R5G]	0.234
ARYKRNLLINDFG [K6N]	1.24
ARYKRKLFINDFG [L8F]	-0.119
ARYKRKLLINDFN [G13N]	0.377
ARYKRKLLINIFG [D11I]	-0.451
ARYKRKLLIGDFG [N10G]	1.65
ARYKRKLLINDQG [F12Q]	-0.177
ARYKRKLLINDCG [F12C]	0.917
ARYRRKLLINDFG [K4R]	0.271
ARYKRDLLINDFG [K6D]	0.227
ARYKRKLAINDFG [L8A]	0.825
ARYKAKLLINDFG [R5A]	0.762
ARWKRKLLINDFG [Y3W]	0.302
ARYKRKLYINDFG [L8Y]	0.361
ARYKRKVLINDFG [L7V]	0.028
ARYKRKLLINKFG [D11K]	0.22
ARYKRKLLINWFG [D11W]	0.298
ARYKRKLLINQFG [D11Q]	0.359
ANYKRKLLINDFG [R2N]	0.679
ARYKRKLLINDHG [F12H]	0.222
ARPKRKLLINDFG [Y3P]	0.114

Set 4
Target: RING finger protein unkempt homolog, zinc fingers 1-6, GST-SBP tag (UNK, Homo sapiens, UniProt Q9C0B0, residues 30-357)
UniProt Q9C0B0, sequence (30-357, looked up): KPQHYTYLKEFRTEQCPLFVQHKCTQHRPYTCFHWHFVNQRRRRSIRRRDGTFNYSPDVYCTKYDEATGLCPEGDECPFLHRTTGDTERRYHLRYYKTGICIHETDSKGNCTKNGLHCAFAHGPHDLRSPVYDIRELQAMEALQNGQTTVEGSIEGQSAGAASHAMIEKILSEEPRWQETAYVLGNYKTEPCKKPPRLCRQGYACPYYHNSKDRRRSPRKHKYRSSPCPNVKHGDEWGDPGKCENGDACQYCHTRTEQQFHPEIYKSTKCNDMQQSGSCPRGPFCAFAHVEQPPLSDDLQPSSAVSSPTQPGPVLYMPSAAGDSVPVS
Technique: RNA Bind-n-Seq
Molecule type: RNA
Medium: in vitro
Concentration: not given
Notes: RNA with constant flanks, human-mouse chimeric sites, ends assumed
Relative to: input RNA pool
Direction: higher = stronger binding
Constant ends, left off below: GGGAGUUCUACAGUCCGACGAUC … CAACAGAGGAUUGAGCAUCA
Oligonucleotide	bound/input enrichment
AAACAUCUGUCUUUAAGCAUUCCAAGCGAGAAUGCUGGGGUGAUCAUUGUUGCCCAUGUGCCUUCUGACUGAGCUUUUAAUUAAUUGCAUGUUACAUCUUUCCUUCACUCCAGAAUUGUU	0.241 ratio
CUCAUGGCUGCAGAAACAGGAAGUGGAAAAACUGGUGCAUUUAGUAUUCCCGUUAUCCAGAUAGUUUAUGAAACUCUGAAAGACCAACAGGAAGGCAAGAAAGGGAAAACAACUAUUAAA	0.834 ratio
UUCAAAGAAAAGGGCAGCUGUGUCAUUUCAUAAGUAAAACUGCAUCCGGGAAAUUCUGUUCUUUUGUUUAAUUUUCCCCCAAAUGAAGCCAAAGUGUGUGUUGAAGAAGGAAGAAUGAAU	0.228 ratio
UUCAAAGAAAAGGGCAGCUGUGUCAUUUCAUAAGUAACUCUGGGGGAGGGAAAUUCUGUUCUUUUGUUUUUAGUUUUCCCAAAUGAAGCCAAAGUGUUUUUUAAGGAACUGAGAAAAAAU	0.221 ratio
GGCCUGGGACCGUCCUGGGCUAGUACAAAUAGCGGCAGUGGAGGCUCGAGAGGAAAGUUUGUUAGUGGAGGCAGUGGAGAGGUCGUCCAUGUACGGUCCUUUACUCGAUAGAUGUGUUCU	0.579 ratio
UUUCUACUGCAGCAAACGAUGCUAAGAAUUAAGGAUCCUAAGAAGUCCCUGGAUUUUUAUACGAGGGUUCUUGGACUGACGCUAAUCCAGAAGCUUGACUUCCCUGCUAUGAAGUUCUCG	0.174 ratio
UCGGAUGCUGUGCUGGGUCACUUUUCAUAUCCAGAUCCUUCACAGUGGACAGAUGAAGAAUUAGGUAUCCCUCCUGAUGACGAGGACUGAAGGUGUAAACUCUCUGGACGAGUAGGAGCA	0.926 ratio
AAAGUGGACUAUGGUGAGUACAUGGAUAAAAACAAUGUGAGGCGGCAAGCAACAACAAUCAUAGCUGAUAACAUUAUAUUUCUGAGUGACCAGACAAAAGAAAAGGCAUAGAACGGAUGA	2.08 ratio
CAGGGCAGCACCACCCCCCCCUCCUCCUUUCCACACCUGCAAACUCUUUUACUUGGGCUGAAUAUUUAGUGUAAUUACAUCUCAGCUUUGAGGGCUCCUGUGGCAAAUUCCCGGAUUAAA	0.918 ratio
AAAGCCCAAGUAUUUUGAAAAAACUCGAACAGAUUUGUCAAGGGUAACCAGCUUGGAGUCUAGCAACUUGCCAAUGUGUUUACCAAUCUGGGGGCUUUGUUUUUCUUUCUUCUUUCAAAU	0.224 ratio
GUGUCCUUUCAACUUAAUAAAUCACUGAGGCAUCUCUACUGUUCUGUUAAAAUCAGGACUGUAGCGCUGUGUCACCACAUGAGAGUUCAGAAGCAGCCUUUCUGUGGAGGGUGGGAAUGA	0.204 ratio

Set 5
Target: RNA binding protein fox-1 homolog 2, RRM domain, GST-SBP tag (RBFOX2, Homo sapiens, UniProt O43251-10, residues 100-194)
Technique: RNA Bind-n-Seq
Molecule type: RNA
Medium: in vitro
Concentration: 365 nM
Notes: natural RNA segment, single round, ends assumed
Relative to: no-protein control
Direction: higher = stronger binding
Constant ends, left off below: GGGAGUUCUACAGUCCGACGAUC … UGGAAUUCUCGGGUGCCAA
Construct (chain): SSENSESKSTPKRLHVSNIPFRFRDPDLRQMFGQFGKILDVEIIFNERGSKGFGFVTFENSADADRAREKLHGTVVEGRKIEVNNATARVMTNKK
Oligonucleotide	RBNS enrichment (R)
UAGAAUAUGUGCUCAGAUCUGAGUUAUAUUUAGUUUUGGAAGGUAAGUUGAAGAGUACUUUUGAUCAGUUUAUGAUUCAGUUUAUGAUUUUAGUUUUUGCCUUCAUGUUA	0.351
CUGGUGGAAGGCCCCUCCCCAUCGCCAGCCGGGCCCUCAUGCUGACCUUGCAAAUUCAGCCGCUGCUUUGAGCCCAAAAUGGGAAUAUUGGUUUUGUGUCCGAGGCUUGU	0.567
AGACAUUCUGUAAUAAGAUUAAAACCUAAAGUCAGCUGUGUAACAUUCCAUGAAAGAUGCAUUCAUUUAUUGAAGAUGACAAAAAAGGGAGUCAGAUAUAUUCUGGAAGC	0.403
GUUGCUACUGUUCAUAGAACUGGGACUGGGAAUGUUUUCAGGUUGAUGGACUUUUUCAAGCUCAAAGUUAUGUUCCCAGACUAUCCUCACCCUUCCCCUAGUUUUGCUGA	0.355
UUUUGUGUGUGUGUGUGUGGGCAUCUCGCUGUAAUUGGUGCUGAAAAGUUAUUUGUGUUCAACUGACAUUUAACGCUCUCUCCCCAACUUCCUCCCGGCCCUGUGGGCCA	1.54
UGAAGAUGUGAAUGGGUGGUACGAUUUCAACACUGGUUAAUUUCACACUCCAUCUCCCCGCUUUGUAAAUACCCAUCGGGAAGAGACUUUUUUUCCAUGGUGAAGAGCAA	0.313
CUUAGUACUAGUGUUUCCUACUUGAUCUCCCAUGCCUGUGGAGACUAAGCCCCCACUACCCCAGAGCUAUCUUCUGUAGCCCAAAGGCAAGGCAGUGACCUCCUACUGAC	0.519
AGCCCUCCAGGUCCUCCAGCUCUGUCAGAUGGAGGGCUCUCGGGCCUAGAUCCCACUGGUAGGCCUCGUGGCUGGCAGCAGUGCUCUGGGAAUAAACAGCUGCCCUAGCC	0.549
AGGCACCUCACUGGGGAUUAUGACCAGGGUCUAGACGAGCUUGAGUCUGAAUUGAGUUUGUAUUUCUAGCACCCUGGGUUUUUACAUGUUUGCUCUUUUUGUUUUUGUUU	1.19
UUCUGGCCAUCCAUGCCCGCACCCACCUGCCAGGCCGCACGUACAGCUGCCCCGAUUGUGGCAAGACCUUCAACCGCUCCUCUACACUCAUUCAGCACCAGCGUUCCCAC	0.774
GGUCCCUCCUGUCCCCCCUCUUCAUCCCUUGACAAAUGGGCACCAGGCUUCUGCUCUCCUCAAAGCCAUACCCCCGCCUUUGGGCGGGCAUAGAGGGGUAGUGGAUGCUA	0.383
GGCCUGUGAGCUGUUUUAAAUUAAUUUUUAUAUAUGGUAUGAGGUAAAGAUCUAAAUUCCUAUGGAUAUUCAGUGGUCUUAGCACCAUGUGUUAAAAGGACUGCUUUUCC	0.893

Set 6
Target: DDIT3, bZIP domain (human)
Technique: DHFR protein complementation
Medium: yeast
Notes: single substitutions, most at no-binding floor
Relative to: wild-type JUN-FOS pair
Direction: higher = stronger binding
Starting sequence: JUN, bZIP domain (human); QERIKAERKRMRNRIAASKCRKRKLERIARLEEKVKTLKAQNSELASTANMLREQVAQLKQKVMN; partner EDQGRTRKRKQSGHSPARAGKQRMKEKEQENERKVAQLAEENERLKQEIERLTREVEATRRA
Substitution	binding fitness [natural log]
K36Q	0.0184
L31A	-0.5
E32S	-0.237
R53L	-0.552
R30F	0.0906
A29Q	-0.0427
K39E	0.191
R30Q	0.13
R53T	-0.509
V35R	-0.531
V56Q	-0.465
E32T	-0.355
A29I	-0.0283
L31V	-0.442
S47K	0.217
L45M	-0.28
Q41M	-0.0261
E54A	-0.0535
E32Y	-0.757
E54P	-1.19
M51T	0.0686
E44R	-0.0342
V56N	-0.632

A few entries again (set 3):
Substitution	normalised enrichment score
ARYHRKLLINDFG [K4H]	1.64
ARYKRKLLINDFQ [G13Q]	0.15
ARYKRKLLVNDFG [I9V]	0.417
ARYERKLLINDFG [K4E]	0.114
ARYKGKLLINDFG [R5G]	0.234
ARYKRNLLINDFG [K6N]	1.24
ARYKRKLFINDFG [L8F]	-0.119
